Assay results pooled from the literature.
A part holds a random share of what one study measured.

Set 1 — method: protein binding microarray; molecule type: double-stranded DNA, one strand shown; medium: in vitro; tested at: not given; baseline: not given; direction: higher = stronger binding
Target: Histone acetyltransferase KAT6A, both winged helices, GST fusion (KAT6A, Homo sapiens, UniProt Q92794, residues 1-181)
Setting: 8-mer, flanks averaged, mean of 2 arrays, mostly near background
Construct (chain): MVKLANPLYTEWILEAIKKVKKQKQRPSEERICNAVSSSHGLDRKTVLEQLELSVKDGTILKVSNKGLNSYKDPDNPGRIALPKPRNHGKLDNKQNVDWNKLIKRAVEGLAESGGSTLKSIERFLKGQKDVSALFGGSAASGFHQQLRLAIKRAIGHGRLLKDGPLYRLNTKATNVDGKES
| Sequence | E-score |
| --- | --- |
| GTCCGTCA | 0.132 |
| CTCAATAA | -0.133 |
| GATTGCGC | 0.326 |
| GGCTCAAA | 0.11 |
| CACTACTA | -0.163 |
| AGTACTGG | -0.22 |
| CCTCGTGC | -0.0463 |
| ACTCTGTC | -0.0423 |

Set 2 — method: RNA Bind-n-Seq; molecule type: RNA; medium: in vitro; tested at: 200 nM; setting: whole 134-nt RNA, ends assumed; with: 150 mM KCl; baseline: input library; direction: higher = stronger binding
Target: Ras GTPase-activating protein-binding protein 1, full length (G3BP1, Homo sapiens, UniProt Q13283)
Chain of UniProt Q13283 (whole entry, looked up): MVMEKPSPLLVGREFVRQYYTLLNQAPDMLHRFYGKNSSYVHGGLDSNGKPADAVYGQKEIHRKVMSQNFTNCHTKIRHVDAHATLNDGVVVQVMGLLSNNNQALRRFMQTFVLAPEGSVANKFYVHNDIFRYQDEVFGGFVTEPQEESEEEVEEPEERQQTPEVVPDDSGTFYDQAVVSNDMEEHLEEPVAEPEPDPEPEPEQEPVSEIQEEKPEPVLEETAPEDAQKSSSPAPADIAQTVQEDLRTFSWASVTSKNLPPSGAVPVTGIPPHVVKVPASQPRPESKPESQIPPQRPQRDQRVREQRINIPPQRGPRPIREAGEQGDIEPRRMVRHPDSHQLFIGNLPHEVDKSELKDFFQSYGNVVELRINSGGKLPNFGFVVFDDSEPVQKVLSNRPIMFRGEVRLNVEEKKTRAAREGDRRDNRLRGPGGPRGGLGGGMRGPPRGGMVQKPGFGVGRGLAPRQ
| Sequence | log2 enrichment |
| --- | --- |
| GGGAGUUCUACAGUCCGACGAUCAGUCCUGUGCUACACAUCGUAUGUACCGAAUCGGGUUUUUGGGUUUUUGGUUUUUGGGAAAGUAUUAUGUUACGCCGUUCGGAUCUGCACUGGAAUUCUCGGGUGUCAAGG | -1.16 |
| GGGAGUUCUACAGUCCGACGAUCCUCAAGUCCUGUGCUACACAUCGUAUGUACCGAAUCGGUUGGGGUUGGUUGGGAAAGUAUUAUGUUACGCCGUUCGGAUCUGCACUUCCAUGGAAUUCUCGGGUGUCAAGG | -0.0658 |
| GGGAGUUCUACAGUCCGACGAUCUAACUUUAGAGGAGGAUCUGAUGGAUAUGGCAGUGGACGUGGAUUUGGGGAUGGCUAUAAUGGGUAUGGAGUAGGACCUGGAGGUGGCAAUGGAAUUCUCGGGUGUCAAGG | 0.21 |
| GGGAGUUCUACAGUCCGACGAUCCCUGUGCUACACAUCGUAUGUACCGAAUCAAAUUUUUAAACCCCCCCAAACCCCCCCAAAAAAGUAUUAUGUUACGCCGUUCGGAUCUGCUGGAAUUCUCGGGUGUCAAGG | 0.0669 |
| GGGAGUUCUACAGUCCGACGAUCUUCUUGCCUAUGCUGUGCGCCACACCAUCCAGGUGUACCGGCUCUCCAAGUACAACACGGAAGAAUUCAUCACAGUCUACCCCACCGACCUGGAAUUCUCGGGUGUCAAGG | 0.522 |
| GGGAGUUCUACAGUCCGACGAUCUAGCUUUAGAGGAGGAUCUGAUGGAUAUGGCAGUGGACGUGGAUUUGGGGAUGGCUAUAAUGGGUAUGGAGGAGGACCUGGAGGUGGCAAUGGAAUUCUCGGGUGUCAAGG | 0.293 |
| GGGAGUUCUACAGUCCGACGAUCCUGUGCUACACAUCGUAUGUACCGAAUCGGGCCCCCCCGGGCCCCCCCGGGCCCCCCCGGGGAAAGUAUUAUGUUACGCCGUUCGGAUCUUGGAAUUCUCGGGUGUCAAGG | -1.48 |
| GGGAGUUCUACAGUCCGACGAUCGUCCUGUGCUACACAUCGUAUGUACCGAAUCGGUUUUUUUGGAAAAAAAGGUUUUUGGAAAGUAUUAUGUUACGCCGUUCGGAUCUGCACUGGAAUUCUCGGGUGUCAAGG | -1.37 |
| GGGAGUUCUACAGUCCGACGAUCCUCAAGUCCUGUGCUACACAUCGUAUGUACCGAAUCGGGUGGGUGGGAAAGGGAAAGUAUUAUGUUACGCCGUUCGGAUCUGCACUUCCAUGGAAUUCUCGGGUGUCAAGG | 1.09 |
| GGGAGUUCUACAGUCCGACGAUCAGUCCUGUGCUACACAUCGUAUGUACCGAAUCAAACCCAAAUUUUUAAAUUUUUAAAAAAGUAUUAUGUUACGCCGUUCGGAUCUGCACUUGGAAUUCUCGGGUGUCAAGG | -0.392 |

Set 3 — method: competition protein-binding microarray; molecule type: double-stranded DNA, one strand shown; medium: in vitro; tested at: 2 µM; with: Cbf1 competitor, 0.05 µM; direction: higher = stronger binding
Target: Phosphate system positive regulatory protein PHO4, full length, GST-tagged (PHO4, Saccharomyces cerevisiae, UniProt P07270, residues 1-312)
Setting: whole 60-bp probe, lowest competitor level
Residues (chain): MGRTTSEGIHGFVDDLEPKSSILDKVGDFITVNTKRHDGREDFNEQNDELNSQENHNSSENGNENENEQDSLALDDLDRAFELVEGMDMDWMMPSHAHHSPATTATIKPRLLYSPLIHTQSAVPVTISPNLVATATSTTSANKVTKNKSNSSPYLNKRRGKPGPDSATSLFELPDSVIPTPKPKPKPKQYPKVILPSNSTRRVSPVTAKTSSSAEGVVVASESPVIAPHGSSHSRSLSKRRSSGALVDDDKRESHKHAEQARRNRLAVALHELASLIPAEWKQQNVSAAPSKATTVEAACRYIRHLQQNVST
| Sequence | fluorescence intensity [a.u.] |
| --- | --- |
| TGTTACTCTAAAGGACACGGGAGAAAAGGTCGCCCCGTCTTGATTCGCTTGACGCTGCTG | 4930 |
| TTTTGAGGGGAATTGATTACATTTCCTTTTTTTTTCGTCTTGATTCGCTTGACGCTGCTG | 2690 |
| CTTTCCCGATCTTGCCGCGTGGGTGTAGCACATTTGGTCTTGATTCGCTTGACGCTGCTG | 11900 |
| AAATTACTAAGTTTTCACGTGTCTTACCCCGTATGAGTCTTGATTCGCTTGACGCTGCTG | 14500 |
| TCCTGATATTCTCCATTGTCATCCGTTTCGTCTTCCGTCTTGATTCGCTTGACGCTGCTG | 3360 |
| GCTCAGGAGCCCTGACTCGTGTTGGCTCGAGTAAACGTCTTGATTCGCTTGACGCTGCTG | 7000 |
| CGTCCTAGTGATTGTCACCTGACTTCCATGAGGAAGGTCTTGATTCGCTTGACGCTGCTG | 4700 |
| CAGACTACTAACCATCACGTGATGGTTCTTTTCACTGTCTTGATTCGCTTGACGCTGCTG | 13300 |

Further values, each from its own experiment
| Substance | target | test | test system | conditions | scale | measurement | value |
| --- | --- | --- | --- | --- | --- | --- | --- |
| PhoQ, residues 284 288 289 292 302 303 MLMVEA | PhoP, residues 12 14 15 18 19 GHCSL (Escherichia coli, UniProt P23836) | Sort-seq, refers to: YFP reporter | E. coli | PhoQ-PhoP variant library, with: 10 µM Mg2+ | baseline: high Mg2+ state, higher = stronger signaling | fold induction | 5.07 |

For quick reference, copied from above (set 1):
| Sequence | E-score |
| --- | --- |
| GGCTCAAA | 0.11 |
| AGTACTGG | -0.22 |
| GTCCGTCA | 0.132 |
